Published values gathered from unrelated publications.
Every numbered part comes from another study and shows a few of its results, in no order.

Series 1
Target: RING finger protein unkempt homolog, zinc fingers 1-6, GST-SBP tag (UNK, Homo sapiens, UniProt Q9C0B0, residues 30-357)
Technique: RNA Bind-n-Seq
Form: RNA
Sample: in vitro
Concentration: not given
Notes: RNA with constant flanks, human and mouse sites, ends assumed
Relative to: input RNA pool
Direction: higher = stronger binding
Measurement: bound/input enrichment
Construct (chain): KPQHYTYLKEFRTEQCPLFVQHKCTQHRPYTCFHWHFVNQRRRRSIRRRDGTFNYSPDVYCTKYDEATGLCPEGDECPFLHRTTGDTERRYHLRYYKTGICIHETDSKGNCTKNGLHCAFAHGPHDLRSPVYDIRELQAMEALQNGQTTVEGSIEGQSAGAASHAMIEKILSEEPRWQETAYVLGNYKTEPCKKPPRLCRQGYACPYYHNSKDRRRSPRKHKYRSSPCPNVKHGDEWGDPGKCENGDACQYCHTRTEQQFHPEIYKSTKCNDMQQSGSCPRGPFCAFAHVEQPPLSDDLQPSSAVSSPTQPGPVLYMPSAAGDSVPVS
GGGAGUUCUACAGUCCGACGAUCGCGCACAGACUUCUCAGUUUGUGUACUCUGUCUGCACCUACACGAUUAGAACCUGAAACAGCACCUACCAAGAGCUUGGUUAGUCACAUACCAAAGCAGAUGUCUACACCGUGCCAUCCCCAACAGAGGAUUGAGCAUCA: 0.152 ratio
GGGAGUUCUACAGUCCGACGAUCGAGACAGAUGAUUCAGUUGAGGGUCGUGGGGUAUCUCAGCCAUCUCAGAAGACCCCCUCUGAAGAGGACUUUGAAACCAUUAAGCUCAUCAGCAAUGGCGCCUAUGGGGCUGUCUUUCUGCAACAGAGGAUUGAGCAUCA: 0.077 ratio
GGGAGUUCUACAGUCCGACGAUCUGAAGCUGAGUGGCCGAGAGAUUGAUGUUCGAAUUGAUAGAAAUGCUUAAGCAGUUGCCUUUUUUAAACAUCAAUACCAGACCUCUGAAUUUGUAUUUUUUCUUGUUAACCAUUUUAAUUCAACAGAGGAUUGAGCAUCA: 0.511 ratio
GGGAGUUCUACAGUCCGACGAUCUGUCCGGGGAUAGGCAGGUGACCCGUGCCGCAGGCAGGAGGCCCCAGCGAGCAUCCCAUCCUGUCAUACUGCUGCAUCCGGCUAGCGCGCUCCGAAAGCAACAUCCGUGCUCAGAGAUGGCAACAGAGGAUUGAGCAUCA: 0.0622 ratio
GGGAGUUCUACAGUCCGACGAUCCUCCGUCUGCGAUGCAGGGCGGCGGCCUGUAAUCCCAGCGACCGCCAGGAGUGGCAGAAUUUAGUGACAUUUGGAAGCUUUUCAAACAUGGUUCCCUGUAGUCAUCCAUAUAUUGGUACCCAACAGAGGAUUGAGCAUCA: 0.458 ratio
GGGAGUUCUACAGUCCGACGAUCAAGGCAUCUUGUACGUCGUUACAUUUAUCAUAUUGGAAGUCCCUUAAGCUCCUAGGAUUUUUAGAUGUUGAAAAUACUCCCUGCGCCCGGCAUUCAAUAUUGUAUGGUUCAUUAGGAUCUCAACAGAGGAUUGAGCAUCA: 2.74 ratio
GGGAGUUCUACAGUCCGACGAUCCACAGCAGUUGACAGCAAGAUGGAGAAGUAUGGCUGACCCCACCCAGUGCCUAGGAGGCAAAUGCAUGAGAGCCUGAGGUGUUUGAUAGGAGCAGGCCACCCAGUGUAUCUGCAAGUGAUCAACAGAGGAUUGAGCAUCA: 0.134 ratio
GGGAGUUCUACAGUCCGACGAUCCCAUGUUUGCCAAAGGCAAAGGCUCGGCGGUGCCCUCGGACGGGCAGGCUCGGGAAAAGUUAGCUUUAUACGUCUACGAAUAUUUACUGCACGUAGGAGCACAGAAAUCUGCACAGACCUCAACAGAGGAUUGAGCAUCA: 0.19 ratio
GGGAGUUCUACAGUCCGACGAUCUGUGGAGCCAGGAAGUGUAACAUAGUCUGCACCCAGCCCCGAAGAAUCUCGGCGGUGAGCUUAGCCACCAGGGUGUGCGAGGAGCUGGGCUGUGAGAGUGGCCCUGGAGGAAGGAAUUCUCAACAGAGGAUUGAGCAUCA: 0.104 ratio
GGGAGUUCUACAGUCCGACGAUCAAGAGGAAGCUAAUUGUUGACAGUGUCAAAGAGUUGGAUAGCAAGACAAUUAGAGCCCAACUUAGUGAUUAUUCAGAUAUUGUUACUACUUUGGAUCUGGCACCGCCCACCAAGAAAUUGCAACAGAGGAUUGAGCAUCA: 0.569 ratio
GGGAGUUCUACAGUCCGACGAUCGGUAGUCUGGCUGUAUUUGGAAAGUUGCAAAGAAGGUAGAUUUGGGGGCAGGAAAAACAACCCUUUUCACAGUGUACUGUGUUUGGUUGGUGUAAAACUGAUGCAGAUUUUUCUGAAAUGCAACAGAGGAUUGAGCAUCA: 0.705 ratio

Series 2
Target: TAR DNA-binding protein 43, full length, His tag (TARDBP, Homo sapiens, UniProt Q13148, residues 1-414)
Technique: RNA Bind-n-Seq
Form: RNA
Sample: in vitro
Concentration: 20 nM
Notes: 6-mer, flanks averaged, single round
With: 150 mM KCl
Relative to: input library
Direction: higher = stronger binding
Measurement: 6-mer enrichment (R)
UCGGGG: 3.42
UCGAAG: 0.852
UUUGCC: 0.668
AAACGC: 0.609
UAGUUU: 0.641
GGCACU: 1.02
GAACGU: 0.85
CGCGUG: 1.45
GGAUAA: 0.963
AUAAAU: 0.718
GGUAGG: 3.7
CAACUG: 0.686
CCAACC: 0.636
CUGGCC: 0.806
AAUGGC: 0.851
GGCUCC: 0.891
AUCCAU: 0.571
GAUGUU: 0.805
CUUCAG: 0.618
GGUAAG: 1.82
UGAUAC: 0.639
GGAUAC: 0.921
UUCAAG: 0.641
UCGUUA: 0.553
CAAGGG: 2.27

Series 3
Target: Interferon regulatory factor 5, full length, phosphomimetic (IRF5, Homo sapiens, UniProt Q13568-2, residues 1-514, K96S/S451D/S453D/S456D/S462D)
Technique: protein-binding microarray
Form: double-stranded DNA, one strand shown
Sample: in vitro
Concentration: 250 nM
Notes: 60-bp whole probe
With: salmon DNA 0.4 mg/ml
Relative to: random background probes
Direction: higher = stronger binding
Measurement: log fluorescence
Shared flanks, not repeated: GCCTAGCAC … GTCTTGATTCGCTTGACGCTGCTG
TCATCTGTTCTTTTCAGACTGTGCTAG: 0.302 z-score
GACGGTTTCGGTTTCGAGACGTGCTAG: 10.9 z-score
GACGGTAACGGTTTCGGGACGTGCTAG: 2.91 z-score
TTAGGTATCGACCTTCGGTTAGTGCTA: 2.97 z-score
TTAGGTTTCGACACTGTGTTAGTGCTA: 6.3 z-score
ATTTACATGCATATAGTATAGTGCTAG: 0.652 z-score
GACGGTTTCGACACTGCGGACGTGCTA: 4.49 z-score
TTAGAACTGGGTACTGGATTAGTGCTA: -0.0436 z-score
GACGATTTCAGTCTCGACACGTGCTAG: 1.59 z-score
TCATAAGCAAAAATGATACTGTGCTAG: 0.576 z-score
TGCCCCCACACTCCTAGCACGTGCTAG: -0.233 z-score
TTAGATATGAGTTTCGATTAGTGCTAG: 8.59 z-score
AGAGCCTGGGGATGCAGAGAGTGCTAG: -0.768 z-score
CCACATATGCTTTTTAGAAAGTGCTAG: 0.398 z-score
TGAGGTATCGACTATCGGTTAGTGCTA: 7.72 z-score
GACGGACTGCTTCTCTTGACGTGCTAG: -0.353 z-score

Series 4
Target: RNA binding protein fox-1 homolog 2, RRM domain, GST-SBP tag (RBFOX2, Homo sapiens, UniProt O43251-10, residues 100-194)
Technique: RNA Bind-n-Seq
Form: RNA
Sample: in vitro
Concentration: 365 nM
Notes: natural RNA segment, single round, ends assumed
Relative to: no-protein control
Direction: higher = stronger binding
Measurement: RBNS enrichment (R)
Construct (chain): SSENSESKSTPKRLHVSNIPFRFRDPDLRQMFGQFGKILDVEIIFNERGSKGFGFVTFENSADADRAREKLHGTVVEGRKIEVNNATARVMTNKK
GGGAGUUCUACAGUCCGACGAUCUGCAGCGAGACGGCAGCACAGACCCCUGGAGGUCCAGGGGGGCCCGAGGCAGGGUCCAAACCUGAGUGAGGGCCAGCCAUGCCUCCCCUCCCAUUCCUCUGGUCCCUGCCUGGAAUUCUCGGGUGCCAA: 0.638
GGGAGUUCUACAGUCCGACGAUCACAAAAUGGAAUGUAGAGGAUGUCUAUGAGUUCAUCCGCUCUCUGCCAGGCUGCCAGGAGAUCGCGGAGGAGUUCCGUGCGCAGGAGAUUGAUGGGCAAGCCUUGCUGCUUGGAAUUCUCGGGUGCCAA: 0.693
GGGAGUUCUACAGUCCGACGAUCAAUGCUAUACUGUCAAGGUACUUGCUUGUGUCUGAACUCUAGUGCACUUAUGAUUUUGUAGACCAUGUGAAAUUUAAUAAGAUACCUUUUUUUUCCUUUCUUUGUGUGUAUGGAAUUCUCGGGUGCCAA: 0.371
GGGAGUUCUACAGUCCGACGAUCAUGACUUUUUCAAAAAUAUACAGGGGCAGCUGCCAAAUUGAUGUAUUAUAUAUUGUGGUUUCUGUUUCUUGAAAGAAUUUUUUUCGUUAUUUUUACAUCUAACAAAGUAAUGGAAUUCUCGGGUGCCAA: 0.79
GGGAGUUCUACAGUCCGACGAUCCCACCUCCAGCUCUGCUGGCAAUCUCCCUCCCCCAAGGCAAACUGGCCAGCAGGAGUGCUUCACAGCAGUCCUGCUUAGUACCGUUGAAGAGACUCAGUUUACCUUAGUGUGGAAUUCUCGGGUGCCAA: 0.254
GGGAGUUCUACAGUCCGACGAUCAUGUUUUCAUAUUAUGAAAUGAAUUUGUAUUUAAACAAAAAUUUAAAUUUUGGAAUCCUCUAAACAUUUUUGUAUCUUUAAUUGUUAUUAUUAAAUCAUGUAAAAGUUCUUGGAAUUCUCGGGUGCCAA: 0.75
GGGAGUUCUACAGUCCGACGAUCGCCAGUCAAGUAAGUUCCUGGAUCUUUGGCAAAGCCAGAGGAAGAAAGGAGCUACCUGCCCUUUCCUGGGCAUGCUUGGUGACUCAGAUUGAUCUUGGAGUGUGCAGUGGUGGAAUUCUCGGGUGCCAA: 0.675
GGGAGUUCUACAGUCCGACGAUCCAUUGUUGAGAUCAGUGGGCAUAUACCAAGCUCCACCCCCAGUGUCAGCUUUGUGCAAUUUGCCUUUACCUCACCAAAAAUACCUACUUUAAUAUUUCCUCCUGUGUCCUUGGAAUUCUCGGGUGCCAA: 0.433
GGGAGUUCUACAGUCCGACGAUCGGAGACAGGACAAGCCUUUCAUCUAAAAGGUGGCACAGAGCUUAAGGCCAGGGAAGAAGGUAUGAAGAAAAGGUGAUUGAGAACUAAUUACCAAGGGAAACUGGCAAGACUGGAAUUCUCGGGUGCCAA: 0.782
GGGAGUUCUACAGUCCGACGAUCGGGCACCUGGCUCAAUCUUGUAACUGCCUGCUAGCCAUAGAUUCCUUUCAGCCUUGCUGACUUCUCCCUAUAAAAGUAAAGCCUUUUUCUGCCCCAGCUCUGAGACACUUUGGAAUUCUCGGGUGCCAA: 2.13
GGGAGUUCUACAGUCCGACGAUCCACUGGUGGGGUUAAUAUAGCAUGUUAUCCUGUCUAUCUUUUGAAGAUUUCUGUAUAAGACUGUUGAGCAGUUUUUAAAAUAGUGUAGGAUAAUAUAAAAAGCGGAUAGAUGGAAUUCUCGGGUGCCAA: 4.66
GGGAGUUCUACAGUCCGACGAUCGAAUUAAUCACUAUAGGAUUAAGCCUUUAUCCUAUAGUGUCCAGUUUUUCUCUACUUCUGAAAUGAGUUGUUCACCAGUAUUAUCUUCUCCCAUCCUAAGCUGUUCAUUUUGGAAUUCUCGGGUGCCAA: 0.502

Repeated from above (series 3):
AGAGCCTGGGGATGCAGAGAGTGCTAG: -0.768 z-score
TTAGGTTTCGACACTGTGTTAGTGCTA: 6.3 z-score
TGCCCCCACACTCCTAGCACGTGCTAG: -0.233 z-score
ATTTACATGCATATAGTATAGTGCTAG: 0.652 z-score
TTAGGTATCGACCTTCGGTTAGTGCTA: 2.97 z-score
TCATCTGTTCTTTTCAGACTGTGCTAG: 0.302 z-score
TTAGAACTGGGTACTGGATTAGTGCTA: -0.0436 z-score
